# Measurements gathered from unrelated publications.
# Numbered parts are unrelated; each lists some results of a single study. Positions count from the first letter of the parent shown.
# UniProt Q9UHD2, sequence (whole entry, looked up): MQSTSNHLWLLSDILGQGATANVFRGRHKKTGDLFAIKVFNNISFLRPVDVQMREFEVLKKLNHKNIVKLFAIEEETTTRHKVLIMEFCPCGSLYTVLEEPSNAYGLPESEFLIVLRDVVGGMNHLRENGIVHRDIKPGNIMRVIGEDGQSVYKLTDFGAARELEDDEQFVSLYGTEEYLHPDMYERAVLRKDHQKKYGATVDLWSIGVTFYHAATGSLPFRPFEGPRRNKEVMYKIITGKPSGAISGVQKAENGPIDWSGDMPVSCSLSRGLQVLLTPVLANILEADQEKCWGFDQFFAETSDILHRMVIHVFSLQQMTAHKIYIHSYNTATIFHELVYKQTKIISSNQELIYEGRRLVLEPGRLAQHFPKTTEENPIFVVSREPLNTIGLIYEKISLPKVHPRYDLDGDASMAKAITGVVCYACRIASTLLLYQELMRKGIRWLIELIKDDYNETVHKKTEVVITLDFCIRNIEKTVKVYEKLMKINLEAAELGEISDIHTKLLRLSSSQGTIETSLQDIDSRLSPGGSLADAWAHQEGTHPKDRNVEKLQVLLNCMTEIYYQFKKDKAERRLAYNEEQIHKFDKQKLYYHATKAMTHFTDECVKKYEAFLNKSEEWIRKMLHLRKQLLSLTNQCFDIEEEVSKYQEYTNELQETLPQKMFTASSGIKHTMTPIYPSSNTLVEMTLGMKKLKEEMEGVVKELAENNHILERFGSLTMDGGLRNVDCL
# UniProt P80192, sequence (whole entry, looked up): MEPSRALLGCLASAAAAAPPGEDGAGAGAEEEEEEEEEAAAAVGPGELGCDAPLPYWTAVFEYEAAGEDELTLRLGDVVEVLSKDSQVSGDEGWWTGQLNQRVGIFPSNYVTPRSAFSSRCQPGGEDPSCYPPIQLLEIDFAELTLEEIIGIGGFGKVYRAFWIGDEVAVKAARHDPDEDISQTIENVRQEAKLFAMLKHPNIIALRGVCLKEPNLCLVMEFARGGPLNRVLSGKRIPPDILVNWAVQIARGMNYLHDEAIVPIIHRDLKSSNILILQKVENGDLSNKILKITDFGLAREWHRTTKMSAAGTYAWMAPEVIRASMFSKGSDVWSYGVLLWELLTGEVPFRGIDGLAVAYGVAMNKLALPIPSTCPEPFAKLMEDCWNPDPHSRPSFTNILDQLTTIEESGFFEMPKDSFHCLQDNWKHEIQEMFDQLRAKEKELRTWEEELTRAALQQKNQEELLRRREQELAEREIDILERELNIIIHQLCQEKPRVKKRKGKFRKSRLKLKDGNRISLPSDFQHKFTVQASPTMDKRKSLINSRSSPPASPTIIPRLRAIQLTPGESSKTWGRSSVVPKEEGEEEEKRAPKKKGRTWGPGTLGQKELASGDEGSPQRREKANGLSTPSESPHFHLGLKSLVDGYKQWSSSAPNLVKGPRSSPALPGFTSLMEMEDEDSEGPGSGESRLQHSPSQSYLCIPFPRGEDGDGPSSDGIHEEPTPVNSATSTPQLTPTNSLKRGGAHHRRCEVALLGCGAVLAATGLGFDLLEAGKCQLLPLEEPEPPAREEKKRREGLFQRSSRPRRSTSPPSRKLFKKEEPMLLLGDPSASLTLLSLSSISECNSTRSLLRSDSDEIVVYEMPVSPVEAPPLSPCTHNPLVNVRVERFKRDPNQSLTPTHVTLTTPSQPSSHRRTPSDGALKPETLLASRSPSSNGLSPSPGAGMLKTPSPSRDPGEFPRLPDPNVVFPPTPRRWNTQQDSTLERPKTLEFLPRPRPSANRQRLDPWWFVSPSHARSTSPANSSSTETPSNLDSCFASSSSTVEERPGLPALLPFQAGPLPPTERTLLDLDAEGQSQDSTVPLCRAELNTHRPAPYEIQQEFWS

# Set 1
# Target: HLA class I histocompatibility antigen, C alpha chain, allele C*04:01 (Homo sapiens, UniProt P10321)
# Read-out: peptide-MHC binding
# Molecule type: peptide
# Concentration: concentration not given
Molecule,binding
FVHDSVQYF,inactive
REAPYELNI,inactive
FTMRLLSPV,inactive
CSDAFYPFY,inactive
YLAENTFVV,inactive
YTTDVNQLY,inactive
RQIRMTSTI,inactive
YYNAFHWAI,inactive

# Set 2
# Target: CCND1, cyclin fold, Cln2 fusion (human)
# Technique: yeast growth competition, sequencing
# Medium: yeast
# Setting: strong parent motif
# Reference: not given
# Reading: higher = stronger binding
# Parent: viral docking peptide; YKVKRRLVFGADD
Change,normalised enrichment score
YKVKRRLLFGADD [V8L],1.13
YKYKRRLVFGADD [V3Y],0.199
YKVKRRLVFGKDD [A11K],1.18
YKVKRRLVFGAWD [D12W],0.37
YKVKRRLVFGAKD [D12K],0.462
YKVKRPLVFGADD [R6P],0.618
YKKKRRLVFGADD [V3K],0.122
YKVKRRLVFGACD [D12C],0.973

# Set 3
# Compound: Cn1cncc1[C@@](O)(COc1ccc(C#N)cc1-c1ccc(OC(F)(F)F)cc1)c1ccc(C#N)cc1
# Read-out: cell-free assay
# Technique: competition with immobilised ligand
# Concentration: 1 µM
target,remaining binding [%]
"SRC (Homo sapiens, UniProt P12931)",100
"TBK1 (Homo sapiens, UniProt Q9UHD2)",100
"MAP3K9 (Homo sapiens, UniProt P80192)",98

# Set 4
# Compound: CC(C)(C)c1nc(-c2cccc(NS(=O)(=O)c3c(F)cccc3F)c2F)c(-c2ccnc(N)n2)s1
# Cell line: L929
# Read-out: necroptosis protection
# Technique: CCK-8
# Together with: TNF-α-induced
conditions,viability [%]
1.563 µM,21.7
50 µM,76.1
0.781 µM,18.7

# Some of these lines once more (set 1):
Molecule,binding
YTTDVNQLY,inactive
RQIRMTSTI,inactive
